Assay results of several laboratories.
Each line is one published result; not all experiments were run side by side.

SMILES = CN1CCC(N[C@@H]2CCc3[nH]c4c(C(N)=O)ccc(-c5ccccc5Cl)c4c3C2)CC1; system = BALB/c mice; setting = oral, 10 mg/kg; AUC(0-t) = 437 ng·h/mL
SMILES = CC(=O)N[C@H](CC(=O)O)C(=O)N[C@H](Cc1c[nH]c2ccccc12)C(=O)N[C@H](Cc1ccccc1)C(=O)N[C@H](CCCCN)C(=O)N[C@H](C)C(=O)N[C@H](Cc1ccccc1)C(=O)N[C@H](Cc1ccc(O)cc1)C(=O)N[C@H](CC(=O)O)C(=O)N[C@H](CCCCN)C(=O)N[C@@H](C(=O)N[C@H](C)C(=O)N[C@H](CCC(=O)O)C(=O)N[C@H](CCCCN)C(=O)N[C@H](Cc1ccccc1)C(=O)N[C@H](CCCCN)C(=O)N[C@H](CCC(=O)O)C(=O)N[C@H](C)C(=O)N[C@H](Cc1ccccc1)C(N)=O)C(C)C; system = statin-treated high-risk CHD men, plasma; setting = oral, 500 mg daily, day 13, 0 to 8 h, mean observed, outlier excluded; AUC(0-t) = 104 ng·h/mL
SMILES = Cc1ccc(OCC(=O)N(Cc2cccs2)c2ccn[nH]2)cc1; system = female Sprague-Dawley rat, plasma; setting = oral, 10 mg/kg, single dose; AUC(0-t) = 7.86 ng·h/mL
SMILES = CSCOC1C(=O)C2(C)C(OCSC)CC3OCC3(OC(C)=O)C2C(OC(=O)c2ccccc2)C2(O)CC(OC(=O)C(O)C(C=C(C)C)NC(=O)OC(C)(C)C)C(C)=C1C2(C)C (centres unmarked); system = female Sprague-Dawley rat, plasma; setting = intravenous, 4 mg/kg; AUC(0-t) = 903 ng·h/mL
SMILES = CN1CCC[C@]1(C)/C=C/S(=O)(=O)NC(=O)Nc1c2c(cc3c1CCC3)CCC2; system = human, plasma; setting = oral, 400 mg, single dose, healthy volunteers; AUC(0-t) = 341000 ng·h/mL
SMILES = CC(C)(O)c1ncc([S@](N)(=O)=NC(=O)Nc2c3c(cc4c2CCC4)CCC3)s1; system = human, plasma; setting = oral, 600 mg, single dose, fasted, healthy volunteers; AUC(0-t) = 792000 ng·h/mL
SMILES = CC12CC(c3ccc(S(C)(=O)=O)cc3)C3=C4CCC(=O)C=C4CCC3C1CCC2(O)C(F)(F)C(F)(F)F (centres unmarked); system = human, plasma; setting = oral, 5 mg, single dose, fasted; AUC(0-t) = 317 ng·h/mL
SMILES = Cc1cccc(O[C@H]2CCC[C@@H](C(C)CNCc3ccncc3)C2)c1 (relative stereo); system = C57BL/6 female mice, plasma; setting = intravenous, 3 mg/kg; AUC(0-t) = 695 ng·h/mL
